Results of several laboratories.
Each line is one published result; not all experiments were run side by side. Numbers after ± are the reported error.

SMILES | cell line | assay | conditions | IC50
Cc1cc(NC(=O)c2cccc(-n3cc(NC(=O)Nc4ccccc4)cn3)c2)ccn1 | SH-SY5Y | in-cell Western, item: phospho-c-Jun | pretreatment 1 h, with: 35 µM 6-OHDA | 6.64 ± 1.16 µM
C=CC(OC(C)=O)c1ccc(OC(C)=O)c(OC)c1 (centres unmarked) | EJ-28 | cell growth or viability, MTT | 24 h | 4.2 µM
Cc1cc(C#N)cc(C)c1Oc1cc(Nc2ccc(C#N)cn2)nc2ccncc12 | MOLT-3 | – | 48 h | 106 ± 20.9 µM
Cc1c(C)c(C)[c-](C)c1C.Fc1cccnc1-c1[c-]cccc1.[Cl-].[Ir+3] | A2780 cells | cell growth, SRB | 24 h exposure, 72 h recovery | > 50 µM
C=C(C)C(=O)Nc1ccc(-c2c(-c3ccc(Oc4nccc(C)n4)cc3)c3c(N)ncnc3n2C)cc1 | SNU-16 | cell growth or viability, ATP luminescence | 96 h | 0.006 µM
CC(C)(C)OC(=O)C(NCc1ccc(CCC(=O)NO)nc1)C1CCCCC1 (centres unmarked) | human CD14+ monocytes | M-CSF differentiation | 20 h then washout, with: M-CSF | 0.625 µM
CCCCCCCCCCCCCCCCC1CC(=O)NCCCN(C)CCCCN(C)CCCN1C (centres unmarked) | LLC-PK11 | cell growth or viability, neutral red | 48 h | 1.7 µg/mL
CCn1cc[n+](CC)[c]1[Au-]([Cl])([Cl])[Cl] | RC-124 kidney epithelial | cell proliferation, crystal violet staining | 96 h | 7 ± 2.4 µM
COc1ccc(/C=C/C2=[N+]3C(=C(C=O)c4c(C)c(Br)c(/C=C/c5ccc(OC)cc5)n4[B-]3(F)F)C(C)=C2Br)cc1 | RPE-1 | phototoxicity, resazurin | with: 645 nm light, 9.00 J/cm2 | 2.2 ± 0.1 µM
CCCC(CCC)C(=O)[O][Pt]([NH2])([NH2])([Cl])([Cl])[O]C(=O)c1ccccc1OC(C)=O | C13 cisplatin-resistant | cytotoxicity, MTT | 72 h | 0.77 ± 0.04 µM
CC(C)CCO | SK-N-SH | cell growth or viability, MTT | 24 h | > 5000 µM
O=C1NCC(Cc2ccccc2)N(CC2CCCN2CC(CC2CCCCC2)N2CC(Cc3ccc(O)cc3)N(CCc3ccccc3)C(=O)C2=O)C1=O (centres unmarked) | BJ skin fibroblasts | viability | 72 h | > 100 µM
O=[N+]([O-])c1ccc(C=[N+]2N=C(Nc3ccccc3)[S][Pd-]2([Cl])[Cl])s1 | CRFK | cell growth or viability | – | 39.1 µM
CCn1nc2c(c1Nc1nc(-c3ccc(-n4cnc(C)c4)c(OC)n3)cs1)CCCC2 | CHO APPwt/PS1 M146L | Aβ42 production | – | 0.047 ± 0.005 µM
Cc1cc(NC(=O)c2cccc(NC(=O)/C(C#N)=C/C(C)(C)C)c2)ccc1Nc1nccc(-c2cccnc2)n1 | SH-SY5Y MKK7-ACT | c-Jun phosphorylation, inhibitor, western blot, item: phospho-c-Jun Ser73 | 6 h, with: doxycycline | 8.62 ± 1.97 µM
CNC(=O)C1CCN(c2ccccc2NC(=O)c2ccc(-c3cc(O)ccc3C)c(C)n2)CC1 | 12Z | cell growth or viability, ATP luminescence | 72 h | 0.456 µM
Cc1c2ccccc2n2c1c(-c1ccccc1)c(S(=O)(=O)c1ccccc1)c1ccccc12 | LS174T | cell growth or viability, MTT | 72 h | > 100 µM
Oc1ccc(-c2csc(Cc3ccccc3)n2)c(O)c1 | HEK293T | cell growth, PrestoBlue | 72 h | 49.9 µM
OC(CN1CCNCC1)Cn1c2ccc(Br)cc2c2cc(Br)ccc21 (centres unmarked) | wild-type MEF | caspase-3/7 activation, inhibitor | 8 h, with: TNFα + cycloheximide | 1.8 µM
[Fe+2].c1cc[cH-]c1.c1ccc(P(=NCc2ccccn2)(c2ccccc2)[c-]2cccc2)cc1 | A2780cisR (cisplatin-resistant) | cell growth, MTT | 74 h, 1% DMSO | 30.3 ± 1.6 µM

A few entries again:
SMILES | cell line | assay | conditions | IC50
Cc1cc(NC(=O)c2cccc(-n3cc(NC(=O)Nc4ccccc4)cn3)c2)ccn1 | SH-SY5Y | in-cell Western, item: phospho-c-Jun | pretreatment 1 h, with: 35 µM 6-OHDA | 6.64 ± 1.16 µM
C=CC(OC(C)=O)c1ccc(OC(C)=O)c(OC)c1 (centres unmarked) | EJ-28 | cell growth or viability, MTT | 24 h | 4.2 µM
Cc1cc(C#N)cc(C)c1Oc1cc(Nc2ccc(C#N)cn2)nc2ccncc12 | MOLT-3 | – | 48 h | 106 ± 20.9 µM
